Results of several laboratories.
Compare with care: the assays were run in different laboratories. Several values in a cell are separate wells, animals, samples, runs or records. ± gives the spread as reported.
Cell line: RAW264.7

With `CC#CC#C/C=C1/O[C@@]2(CC[C@@H](O)CO2)[C@H](O)[C@H]1OC(C)=O` the viability was 90.9 ± 14.8% (MTT; DMEM with 10% FBS; 50 µM, 18 h, together with: LPS 1 µg/mL; reference: DMSO).
With `COc1cc2c(cc1OC)[C@@H]1C(=O)c3c(O)cc4c(c3O[C@@H]1CO2)C=CC(C)(C)O4` the viability was 96.3% (cell growth or viability, MTT; 100 µg/mL, 24 h).
`CC#CC#C/C=C1/O[C@@]2(CCCCO2)[C@@H](O)[C@@H]1O` has a viability of 93.4 ± 9.8% (MTT; DMEM with 10% FBS; 50 µM, 18 h, together with: LPS 1 µg/mL; reference: DMSO).
`COC1OC(C)C(OC2OC(C)C(OS(=O)(=O)O)C(OC3OC(C)C(OC4OC(C)C(OS(=O)(=O)O)C(OC5OC(C)C(OC6OC(C)C(OS(=O)(=O)O)C(OC7OC(C)C(OS(=O)(=O)O)C(OS(=O)(=O)O)C7OS(=O)(=O)O)C6OS(=O)(=O)O)C(OS(=O)(=O)O)C5OS(=O)(=O)O)C4OS(=O)(=O)O)C(OS(=O)(=O)O)C3OS(=O)(=O)O)C2OS(=O)(=O)O)C(OS(=O)(=O)O)C1OS(=O)(=O)O` (centres unmarked) gave a viability of 111% and 124% and 104% (CCK-8; concentration not given, 24 h, low concentration; reference: untreated cells).
`C/C=C(/NC(=O)CCCCCCC)C(=O)N/C(=C/C)C(=O)N[C@H](CC(C)C)C(=O)N[C@H](C(=O)Nc1ccc(C(=O)N[C@H](C(=O)O)[C@@H](C)O)cc1)c1ccc(O)cc1` gave an IC50 of 86.5 ± 1.37 µM (cytotoxicity, MTT).
The viability of `COC1OC(C)C(OS(=O)(=O)O)C(OC2OC(C)C(OS(=O)(=O)O)C(OC3OC(C)C(OS(=O)(=O)O)C(OC4OC(C)C(OS(=O)(=O)O)C(OC5OC(C)C(OS(=O)(=O)O)C(OC6OC(C)C(OS(=O)(=O)O)C(OC7OC(C)C(OS(=O)(=O)O)C(OC8OC(C)C(OS(=O)(=O)O)C(OS(=O)(=O)O)C8OS(=O)(=O)O)C7OS(=O)(=O)O)C6OS(=O)(=O)O)C5OS(=O)(=O)O)C4OS(=O)(=O)O)C3OS(=O)(=O)O)C2OS(=O)(=O)O)C1OS(=O)(=O)O` (centres unmarked) is reported as 102% and 106% and 101% (CCK-8; concentration not given, 24 h, high concentration; reference: untreated cells).
The IC50 of `C/C=C(/NC(=O)CCCCCCC)C(=O)N/C(=C/C)C(=O)N[C@H](CC(C)C)C(=O)N[C@H](C(=O)Nc1ccc(C(=O)N[C@H](C(=O)O)[C@@H](C)O)cc1)C(C)C` is reported as 65.8 ± 1.7 µM (cytotoxicity, MTT).
`C=C(C)[C@H]1Cc2c(cc(O)c3c2O[C@@H]2COc4cc(OC)c(OC)cc4[C@@H]2C3=O)O1` has a viability of 99.5% (cell growth or viability, MTT; 100 µg/mL, 24 h).
`CC#CC#C/C=C1/O[C@@]2(CCCCO2)[C@@H](OC(C)=O)[C@@H]1O` has a viability of 91.6 ± 8.2% (MTT; DMEM with 10% FBS; 50 µM, 18 h, together with: LPS 1 µg/mL; reference: DMSO).
For `COC1OC(C)C(OC2OC(C)C(O)C(OC3OC(C)C(OC4OC(C)C(O)C(OC5OC(C)C(OC6OC(C)C(O)C(OC7OC(C)C(OC8OC(C)C(O)C(OS(=O)(=O)O)C8OS(=O)(=O)O)C(OS(=O)(=O)O)C7OS(=O)(=O)O)C6OS(=O)(=O)O)C(OS(=O)(=O)O)C5OS(=O)(=O)O)C4OS(=O)(=O)O)C(OS(=O)(=O)O)C3OS(=O)(=O)O)C2OS(=O)(=O)O)C(OS(=O)(=O)O)C1OS(=O)(=O)O` (centres unmarked), the viability was 71.1% and 76.9% and 100% (CCK-8; concentration not given, 24 h, low concentration; reference: untreated cells).
For `C/C=C(/NC(=O)CCCCCCC)C(=O)N/C(=C/C)C(=O)N[C@H](CC(C)C)C(=O)N[C@@H](CC(C)C)C(=O)Nc1ccc(C(=O)N[C@H](C(=O)O)[C@@H](C)O)cc1`, the IC50 was greater than 100 µM (cytotoxicity, MTT).
With `CC#CC#C/C=C1/O[C@]2(CC[C@H](OC(C)=O)CO2)[C@@H](O)[C@@H]1OC(=O)CC(C)C` (stereo in doubt) the viability was 92 ± 7.1% (MTT; DMEM with 10% FBS; 50 µM, 18 h, together with: LPS 1 µg/mL; reference: DMSO).
`COC1OC(C)C(OS(=O)(=O)O)C(OC2OC(C)C(OS(=O)(=O)O)C(OC3OC(C)C(OS(=O)(=O)O)C(OC4OC(C)C(OS(=O)(=O)O)C(OC5OC(C)C(OS(=O)(=O)O)C(OC6OC(C)C(OS(=O)(=O)O)C(OC7OC(C)C(OS(=O)(=O)O)C(OC8OC(C)C(OS(=O)(=O)O)C(OC9OC(C)C(OS(=O)(=O)O)C(OC%10OC(C)C(OS(=O)(=O)O)C(OS(=O)(=O)O)C%10OS(=O)(=O)O)C9OS(=O)(=O)O)C8OS(=O)(=O)O)C7OS(=O)(=O)O)C6OS(=O)(=O)O)C5OS(=O)(=O)O)C4OS(=O)(=O)O)C3OS(=O)(=O)O)C2OS(=O)(=O)O)C1OS(=O)(=O)O` (centres unmarked) has a viability of 111% and 128% and 108% (CCK-8; concentration not given, 24 h, high concentration; reference: untreated cells).
The IC50 of `C/C=C(/NC(=O)CCCCCCC)C(=O)N/C(=C/C)C(=O)N[C@H](CC(C)C)C(=O)N[C@H](C(=O)Nc1ccc(C(=O)N[C@H](C(=O)O)[C@@H](C)O)cc1)[C@@H](C)CC` is reported as greater than 100 µM (cytotoxicity, MTT).

Some of these lines once more:
For `C/C=C(/NC(=O)CCCCCCC)C(=O)N/C(=C/C)C(=O)N[C@H](CC(C)C)C(=O)N[C@@H](CC(C)C)C(=O)Nc1ccc(C(=O)N[C@H](C(=O)O)[C@@H](C)O)cc1`, the IC50 was greater than 100 µM (cytotoxicity, MTT).
With `CC#CC#C/C=C1/O[C@]2(CC[C@H](OC(C)=O)CO2)[C@@H](O)[C@@H]1OC(=O)CC(C)C` (stereo in doubt) the viability was 92 ± 7.1% (MTT; DMEM with 10% FBS; 50 µM, 18 h, together with: LPS 1 µg/mL; reference: DMSO).
